{"data": "Measured values from different studies", "OPRD1": "Delta-type opioid receptor (OPRD1, Homo sapiens, UniProt P41143)", "OPRL1": "Nociceptin receptor (OPRL1, Homo sapiens, UniProt P41146)", "OPRM1": "Mu-type opioid receptor (OPRM1, Homo sapiens, UniProt P35372)", "note": "Each line is one published result; not all experiments were run side by side. ± marks the error that the study gave."}
{"Molecule": "O=C(C1CC1)N1CC2CC(C1)N2", "target": "Neuronal acetylcholine receptor subunit alpha-7 (CHRNA7, Homo sapiens, UniProt P36544)", "assay": "binding", "test system": "membranes", "conditions": "together with: [3H]epibatidine", "measurement": "Ki", "value": "0.62 ± 0.095 µM"}
{"Molecule": "O=[As](O)(O)O", "target": "Dual specificity protein phosphatase 23 (Homo sapiens, UniProt Q9BVJ7)", "assay": "competitive inhibitor", "conditions": "pH 5.5, together with: pNPP", "measurement": "Ki", "value": "130 ± 40 µM"}
{"Molecule": "CO[C@]12CC[C@@]3(C[C@@H]1[C@@](C)(O)c1ccncc1)[C@H]1Cc4ccc(O)c5c4[C@@]3(CCN1CC1CC1)[C@H]2O5", "target": "Delta-type opioid receptor (Oprd1, Rattus norvegicus, UniProt P33533)", "assay": "binding, radioligand displacement", "test system": "C6 rat glioma", "conditions": "together with: [3H]diprenorphine", "measurement": "Ki", "value": "0.00099 ± 0.00043 µM"}
{"Molecule": "CO[C@]12CC[C@@]3(C[C@@H]1[C@@](C)(O)C(C)(C)C)[C@H]1Cc4cc(Br)c(O)c5c4[C@@]3(CCN1CC1CC1)[C@H]2O5", "target": "OPRD1", "assay": "radioligand binding", "test system": "CHO", "conditions": "together with: [3H]Cl-DPDPE", "measurement": "Ki", "value": "0.00867 ± 0.00081 µM"}
{"Molecule": "CC[C@H](C)[C@H](NC(=O)[C@H](Cc1c[nH]c2ccccc12)NC(=O)[C@H](CCC(N)=O)NC(=O)[C@H](CCCNC(=N)N)NC(=O)[C@H](Cc1c[nH]c2ccccc12)NC(=O)CNC(=O)[C@@H](NC(=O)[C@H](Cc1c[nH]c2ccccc12)NC(=O)[C@H](Cc1c[nH]c2ccccc12)NC(=O)[C@H](CC(N)=O)NC(=O)[C@H](CC(=O)O)NC(=O)[C@@H](N)CC(N)=O)[C@@H](C)O)C(=O)O", "target": "fMet-Leu-Phe receptor (FPR1, Homo sapiens, UniProt P21462)", "assay": "binding, competition binding", "conditions": "4 °C, together with: formyl-Nle-Leu-Phe-Nle-Tyr-Lys-FITC 0.3 nM", "measurement": "Ki", "value": "1.4 ± 0.2 µM"}
{"Molecule": "CC#C/C(=N\\OC[C@H]1COCCN1)c1ccc2ncnc(Nc3ccc(OCc4cccc(F)c4)c(Cl)c3)c2c1", "target": "Mitogen-activated protein kinase 8 (MAPK8, Homo sapiens, UniProt P45983)", "assay": "kinase activity", "conditions": "10 µM", "measurement": "inhibition", "value": "4.8%"}
{"Molecule": "CO[C@]12CC[C@@]3(C[C@@H]1[C@](C)(O)c1cccs1)[C@H]1Cc4ccc(O)c5c4[C@@]3(CCN1CC1CC1)[C@H]2O5", "target": "Mu-type opioid receptor (Oprm1, Rattus norvegicus, UniProt P33535)", "assay": "binding, radioligand displacement", "test system": "C6 rat glioma", "conditions": "together with: [3H]diprenorphine", "measurement": "Ki", "value": "0.0006 ± 0.00014 µM"}
{"Molecule": "CO[C@]12CC[C@@]3(C[C@@H]1C(C)(C)O)[C@H]1Cc4ccc(O)c5c4[C@@]3(CCN1CC1CC1)[C@H]2O5", "target": "Delta-type opioid receptor (Oprd1, Mus musculus, UniProt P32300)", "assay": "radioligand displacement", "test system": "mouse brain membranes", "conditions": "together with: [3H]naltrindole", "measurement": "Ki", "value": "0.00054 ± 4e-05 µM"}
{"Molecule": "CO[C@]12C=C[C@@]3(C[C@@H]1[C@H](O)c1ccccc1)[C@H]1Cc4ccc(O)c5c4[C@@]3(CCN1CC1CC1)[C@H]2O5", "target": "OPRD1", "assay": "binding, radioligand displacement", "test system": "CHO", "conditions": "together with: [3H]DPDPE", "measurement": "Ki", "value": "0.0032 ± 0.00048 µM"}
{"Molecule": "CO[C@]12CC[C@@]3(C[C@@H]1[C@@](C)(O)c1ccc(C(C)(C)C)cc1)[C@H]1Cc4ccc(O)c5c4[C@@]3(CCN1CC1CC1)[C@H]2O5", "target": "OPRL1", "assay": "radioligand binding", "test system": "CHO", "conditions": "together with: [3H]N/OFQ", "measurement": "Ki", "value": "0.133 ± 0.0082 µM"}
{"Molecule": "CCc1nc(N)nc(N)c1C#CCc1cc(OC)cc(-c2ccc(C(=O)O)cc2)c1", "target": "Riboflavin biosynthesis protein RibD (Mycobacterium tuberculosis, UniProt P71968)", "assay": "inhibitor", "conditions": "together with: NADPH 50 µM", "measurement": "Ki", "value": "1.17 ± 0.14 µM"}
{"Molecule": "O=[N+]([O-])c1cc(S(=O)(=O)c2cc([N+](=O)[O-])c(O)c([N+](=O)[O-])c2)cc([N+](=O)[O-])c1O", "target": "pchB (Pseudomonas aeruginosa, UniProt Q51507)", "assay": "salicylate production, inhibitor, salicylate fluorescence", "measurement": "Ki", "value": "0.08 ± 0.008 µM"}
{"Molecule": "CO[C@]12CC[C@@]3(C[C@@H]1[C@@](C)(O)C(C)(C)C)[C@H]1Cc4c(Br)cc(O)c5c4[C@@]3(CCN1CC1CC1)[C@H]2O5", "target": "OPRL1", "assay": "radioligand binding", "test system": "CHO", "conditions": "together with: [3H]N/OFQ", "measurement": "Ki", "value": "0.237 ± 0.064 µM"}
{"Molecule": "O=c1cc(CNCCCOc2cccnc2)[nH]c2ccc(F)cc12", "target": "D(4) dopamine receptor (DRD4, Homo sapiens, UniProt P21917)", "assay": "radioligand competition", "conditions": "together with: [3H]N-methylspiperone", "measurement": "Ki", "value": "0.03 µM"}
{"Molecule": "CN(C(=O)Cc1ccccc1)[C@H]1CC[C@@]2(CCCO2)C[C@@H]1N1CCCC1", "target": "OPRL1", "assay": "radioligand binding", "test system": "CHO", "conditions": "together with: [3H]N/OFQ", "measurement": "Ki", "value": "> 10 µM"}
{"Molecule": "CCN1CCN(Cc2ccc(NC(=O)c3ccc(C)c(/C=C/c4cnc5[nH]ccc5c4OC)c3)cc2C(F)(F)F)CC1", "target": "Serine/threonine-protein kinase NLK (NLK, Homo sapiens, UniProt Q9UBE8)", "assay": "inhibitor", "conditions": "5 µM", "scale": "baseline: no inhibitor", "measurement": "log2 fold change", "value": 0.289}
{"Molecule": "CO[C@]12CC[C@@]3(C[C@@H]1[C@](C)(O)c1ccccc1)[C@H]1Cc4ccc(O)c5c4[C@@]3(CCN1CC1CC1)[C@H]2O5", "target": "OPRM1", "assay": "binding, radioligand displacement", "test system": "CHO", "conditions": "together with: [3H]DAMGO", "measurement": "Ki", "value": "0.00071 ± 0.00017 µM"}
{"Molecule": "CO[C@]12CC[C@@]3(C[C@@H]1[C@](C)(O)CC(C)(C)C)[C@H]1Cc4ccc(O)c5c4[C@@]3(CCN1CC1CC1)[C@H]2O5", "target": "OPRM1", "assay": "radioligand binding", "test system": "CHO", "conditions": "together with: [3H]DAMGO", "measurement": "Ki", "value": "0.00295 ± 0.00065 µM"}
{"Molecule": "CC[C@](O)([C@H]1C[C@@]23CC[C@]1(OC)[C@@H]1Oc4c(O)ccc5c4[C@@]12CCN(CC1CC1)[C@@H]3C5)C(C)(C)C", "target": "OPRL1", "assay": "binding, radioligand displacement", "test system": "CHO", "conditions": "together with: [3H]N/OFQ", "measurement": "Ki", "value": "0.105 ± 0.004 µM"}
{"Molecule": "CC[C@H](C)[C@H](NC(=O)[C@H](Cc1ccc(O)cc1)NC(=O)[C@H](CCC(N)=O)NC(=O)[C@@H](N)CCC(=O)O)C(=O)N[C@@H](CCCCN)C(=O)N[C@@H](Cc1c[nH]c2ccccc12)C(=O)N1CCC[C@H]1C(=O)N[C@@H](Cc1c[nH]c2ccccc12)C(=O)N[C@@H](Cc1ccc(O)cc1)C(=O)N[C@H](C(=O)N[C@@H](Cc1c[nH]c2ccccc12)C(=O)N[C@@H](CC(C)C)C(=O)O)C(C)C", "target": "fMet-Leu-Phe receptor (FPR1, Homo sapiens, UniProt P21462, R190W)", "assay": "binding, competition binding", "conditions": "4 °C, together with: formyl-Nle-Leu-Phe-Nle-Tyr-Lys-FITC 0.3 nM", "measurement": "Ki", "value": "0.39 ± 0.03 µM"}
{"Molecule": "CC[C@](O)([C@H]1C[C@@]23C=C[C@]1(OC)[C@@H]1Oc4c(O)ccc5c4[C@@]12CCN(CC1CC1)[C@@H]3C5)C(C)(C)C", "target": "OPRL1", "assay": "binding, radioligand displacement", "test system": "CHO", "conditions": "together with: [3H]N/OFQ", "measurement": "Ki", "value": "0.187 ± 0.027 µM"}
{"Molecule": "COC(=O)[C@@H]1C[C@H](OC(C)=O)C(=O)[C@H]2[C@@]1(C)CC[C@H]1C(=O)O[C@H](c3ccoc3)C[C@]21C", "target": "Delta-type opioid receptor (Oprd1, Mus musculus, UniProt P32300)", "assay": "radioligand binding", "test system": "CHO membranes", "conditions": "together with: [3H]diprenorphine", "measurement": "Ki", "value": "> 1 µM"}
{"Molecule": "dimethyl sulfoxide", "target": "Acetylcholinesterase (ACHE, Homo sapiens, UniProt P22303)", "assay": "Ellman", "conditions": "pH 7.4, 22 °C, together with: acetylthiocholine", "measurement": "Ki", "value": "45000 ± 5000 µM"}
{"note": "For quick reference, copied from above:"}
{"Molecule": "CO[C@]12CC[C@@]3(C[C@@H]1[C@](C)(O)CC(C)(C)C)[C@H]1Cc4ccc(O)c5c4[C@@]3(CCN1CC1CC1)[C@H]2O5", "target": "OPRM1", "assay": "radioligand binding", "test system": "CHO", "conditions": "together with: [3H]DAMGO", "measurement": "Ki", "value": "0.00295 ± 0.00065 µM"}
{"Molecule": "CC[C@](O)([C@H]1C[C@@]23CC[C@]1(OC)[C@@H]1Oc4c(O)ccc5c4[C@@]12CCN(CC1CC1)[C@@H]3C5)C(C)(C)C", "target": "OPRL1", "assay": "binding, radioligand displacement", "test system": "CHO", "conditions": "together with: [3H]N/OFQ", "measurement": "Ki", "value": "0.105 ± 0.004 µM"}
{"Molecule": "CC[C@H](C)[C@H](NC(=O)[C@H](Cc1ccc(O)cc1)NC(=O)[C@H](CCC(N)=O)NC(=O)[C@@H](N)CCC(=O)O)C(=O)N[C@@H](CCCCN)C(=O)N[C@@H](Cc1c[nH]c2ccccc12)C(=O)N1CCC[C@H]1C(=O)N[C@@H](Cc1c[nH]c2ccccc12)C(=O)N[C@@H](Cc1ccc(O)cc1)C(=O)N[C@H](C(=O)N[C@@H](Cc1c[nH]c2ccccc12)C(=O)N[C@@H](CC(C)C)C(=O)O)C(C)C", "target": "fMet-Leu-Phe receptor (FPR1, Homo sapiens, UniProt P21462, R190W)", "assay": "binding, competition binding", "conditions": "4 °C, together with: formyl-Nle-Leu-Phe-Nle-Tyr-Lys-FITC 0.3 nM", "measurement": "Ki", "value": "0.39 ± 0.03 µM"}
